Assay results gathered from unrelated publications.
Each line is one published result; not all experiments were run side by side. Values joined by “and” are separate records of one study, mostly repeats; a detail may differ. Numbers after ± are the reported error.
GAP50: Glideosome-associated protein 50 (GAP50, Plasmodium falciparum, UniProt Q8I2X3)
Chain of UniProt Q8I2X3 (whole entry, looked up): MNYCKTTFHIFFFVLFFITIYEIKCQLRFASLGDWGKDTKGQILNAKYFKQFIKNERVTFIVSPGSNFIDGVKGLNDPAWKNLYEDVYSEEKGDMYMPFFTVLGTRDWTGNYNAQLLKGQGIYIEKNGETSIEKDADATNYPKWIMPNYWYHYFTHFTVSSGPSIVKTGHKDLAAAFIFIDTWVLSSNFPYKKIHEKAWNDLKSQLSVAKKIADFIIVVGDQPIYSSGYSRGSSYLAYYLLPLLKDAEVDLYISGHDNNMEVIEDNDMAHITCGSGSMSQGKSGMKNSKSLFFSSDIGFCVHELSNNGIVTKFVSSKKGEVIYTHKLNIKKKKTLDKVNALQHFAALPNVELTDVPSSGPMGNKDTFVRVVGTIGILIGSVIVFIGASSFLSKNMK
USP51 ZnF-UBD domain: Ubiquitin carboxyl-terminal hydrolase 51, ZnF-UBD domain (USP51, Homo sapiens, UniProt Q70EK9)
Chain of UniProt Q70EK9 (whole entry, looked up): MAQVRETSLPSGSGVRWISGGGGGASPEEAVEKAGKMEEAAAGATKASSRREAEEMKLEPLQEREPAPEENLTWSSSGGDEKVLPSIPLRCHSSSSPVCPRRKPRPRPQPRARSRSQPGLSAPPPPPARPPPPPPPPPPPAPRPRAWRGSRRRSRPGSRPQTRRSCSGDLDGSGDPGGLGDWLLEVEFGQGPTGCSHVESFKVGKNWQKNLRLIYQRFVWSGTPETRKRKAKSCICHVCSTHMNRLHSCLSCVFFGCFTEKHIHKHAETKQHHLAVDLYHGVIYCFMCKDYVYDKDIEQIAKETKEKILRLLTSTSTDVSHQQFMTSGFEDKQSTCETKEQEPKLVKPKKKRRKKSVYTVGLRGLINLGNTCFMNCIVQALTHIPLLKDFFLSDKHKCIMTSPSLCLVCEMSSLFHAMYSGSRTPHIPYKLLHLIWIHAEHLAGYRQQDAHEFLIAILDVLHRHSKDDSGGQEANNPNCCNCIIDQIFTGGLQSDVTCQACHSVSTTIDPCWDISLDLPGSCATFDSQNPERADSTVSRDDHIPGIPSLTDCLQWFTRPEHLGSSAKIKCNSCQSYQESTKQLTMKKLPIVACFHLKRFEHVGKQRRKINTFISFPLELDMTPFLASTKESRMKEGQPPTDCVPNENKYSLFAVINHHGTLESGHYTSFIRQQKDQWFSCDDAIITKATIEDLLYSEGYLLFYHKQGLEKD
uncharacterized protein: uncharacterized protein (Pelagibacter ubique, UniProt Q4FKZ8)
NOD2 W931A LRR domain: Nucleotide-binding oligomerization domain-containing protein 2, LRR domain (NOD2, Homo sapiens, UniProt Q9HC29, W931A)
Chain of UniProt Q9HC29 (whole entry, unmodified, looked up): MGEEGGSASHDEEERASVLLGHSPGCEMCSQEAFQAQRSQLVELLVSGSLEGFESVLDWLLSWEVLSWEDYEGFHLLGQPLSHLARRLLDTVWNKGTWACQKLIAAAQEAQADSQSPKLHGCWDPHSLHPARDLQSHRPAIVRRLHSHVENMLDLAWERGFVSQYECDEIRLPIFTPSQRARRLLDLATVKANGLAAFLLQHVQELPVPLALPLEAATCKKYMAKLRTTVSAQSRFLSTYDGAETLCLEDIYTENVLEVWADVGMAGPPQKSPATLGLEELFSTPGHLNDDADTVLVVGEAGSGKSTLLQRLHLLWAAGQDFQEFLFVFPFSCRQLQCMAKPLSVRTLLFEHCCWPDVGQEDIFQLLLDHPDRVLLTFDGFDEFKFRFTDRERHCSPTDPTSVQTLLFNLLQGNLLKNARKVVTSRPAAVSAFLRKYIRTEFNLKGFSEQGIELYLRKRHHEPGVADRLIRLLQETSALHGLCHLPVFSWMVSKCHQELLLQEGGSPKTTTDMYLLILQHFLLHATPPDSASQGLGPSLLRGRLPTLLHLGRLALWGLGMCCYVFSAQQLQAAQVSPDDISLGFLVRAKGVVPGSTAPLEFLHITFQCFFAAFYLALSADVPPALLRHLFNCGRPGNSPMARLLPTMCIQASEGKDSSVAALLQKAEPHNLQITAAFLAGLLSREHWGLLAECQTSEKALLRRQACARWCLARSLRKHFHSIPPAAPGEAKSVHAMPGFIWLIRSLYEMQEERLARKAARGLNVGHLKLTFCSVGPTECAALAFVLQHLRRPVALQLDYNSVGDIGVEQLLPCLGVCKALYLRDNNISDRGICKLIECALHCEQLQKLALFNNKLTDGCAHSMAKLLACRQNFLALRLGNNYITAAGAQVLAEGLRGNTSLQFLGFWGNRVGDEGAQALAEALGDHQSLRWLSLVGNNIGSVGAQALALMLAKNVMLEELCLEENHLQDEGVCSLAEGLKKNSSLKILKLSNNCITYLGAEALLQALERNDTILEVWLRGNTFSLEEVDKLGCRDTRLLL
Maoa: Amine oxidase [flavin-containing] A (Maoa, Rattus norvegicus, UniProt P21396)
Chain of UniProt P21396 (whole entry, looked up): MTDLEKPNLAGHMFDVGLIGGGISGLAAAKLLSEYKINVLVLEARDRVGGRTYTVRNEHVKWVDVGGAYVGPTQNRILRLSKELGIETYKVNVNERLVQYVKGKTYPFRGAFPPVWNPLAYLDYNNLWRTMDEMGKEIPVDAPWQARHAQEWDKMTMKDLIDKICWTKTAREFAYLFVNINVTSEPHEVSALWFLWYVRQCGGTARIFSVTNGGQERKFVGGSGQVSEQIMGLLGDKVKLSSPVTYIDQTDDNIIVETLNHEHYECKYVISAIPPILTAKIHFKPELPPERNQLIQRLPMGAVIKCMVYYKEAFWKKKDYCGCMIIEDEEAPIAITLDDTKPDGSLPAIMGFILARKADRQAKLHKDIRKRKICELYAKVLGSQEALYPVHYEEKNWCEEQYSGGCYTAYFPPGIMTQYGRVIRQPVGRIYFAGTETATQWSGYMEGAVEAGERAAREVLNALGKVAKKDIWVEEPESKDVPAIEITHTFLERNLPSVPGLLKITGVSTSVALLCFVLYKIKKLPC
Chain of UniProt Q9ULX7 (whole entry, looked up): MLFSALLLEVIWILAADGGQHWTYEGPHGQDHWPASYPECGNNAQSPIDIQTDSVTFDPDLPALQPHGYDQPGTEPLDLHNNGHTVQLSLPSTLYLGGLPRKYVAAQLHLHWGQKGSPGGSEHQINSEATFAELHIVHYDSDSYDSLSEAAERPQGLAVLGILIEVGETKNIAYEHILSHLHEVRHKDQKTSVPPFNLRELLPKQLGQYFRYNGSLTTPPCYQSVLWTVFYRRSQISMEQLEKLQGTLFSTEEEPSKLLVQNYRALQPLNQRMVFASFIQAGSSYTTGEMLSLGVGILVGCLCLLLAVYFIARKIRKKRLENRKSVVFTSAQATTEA
Chain of UniProt Q969S8 (whole entry, looked up): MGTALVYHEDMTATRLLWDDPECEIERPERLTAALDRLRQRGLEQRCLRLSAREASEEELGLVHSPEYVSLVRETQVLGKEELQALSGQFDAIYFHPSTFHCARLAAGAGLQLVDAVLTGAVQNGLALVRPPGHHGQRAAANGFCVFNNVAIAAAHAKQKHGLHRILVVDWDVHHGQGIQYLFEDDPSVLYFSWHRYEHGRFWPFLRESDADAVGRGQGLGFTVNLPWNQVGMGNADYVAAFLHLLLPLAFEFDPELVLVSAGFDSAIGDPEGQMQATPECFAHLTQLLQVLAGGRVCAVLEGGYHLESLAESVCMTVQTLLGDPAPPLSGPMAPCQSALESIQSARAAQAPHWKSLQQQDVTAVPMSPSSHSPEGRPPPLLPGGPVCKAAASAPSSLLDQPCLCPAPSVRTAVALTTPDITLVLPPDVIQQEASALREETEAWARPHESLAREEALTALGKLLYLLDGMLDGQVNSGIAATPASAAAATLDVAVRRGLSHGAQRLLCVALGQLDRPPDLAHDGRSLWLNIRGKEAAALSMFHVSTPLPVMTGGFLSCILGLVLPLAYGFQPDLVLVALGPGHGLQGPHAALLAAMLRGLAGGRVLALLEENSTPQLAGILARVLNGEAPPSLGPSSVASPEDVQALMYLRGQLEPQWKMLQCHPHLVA
Chain of UniProt O95429 (whole entry, looked up): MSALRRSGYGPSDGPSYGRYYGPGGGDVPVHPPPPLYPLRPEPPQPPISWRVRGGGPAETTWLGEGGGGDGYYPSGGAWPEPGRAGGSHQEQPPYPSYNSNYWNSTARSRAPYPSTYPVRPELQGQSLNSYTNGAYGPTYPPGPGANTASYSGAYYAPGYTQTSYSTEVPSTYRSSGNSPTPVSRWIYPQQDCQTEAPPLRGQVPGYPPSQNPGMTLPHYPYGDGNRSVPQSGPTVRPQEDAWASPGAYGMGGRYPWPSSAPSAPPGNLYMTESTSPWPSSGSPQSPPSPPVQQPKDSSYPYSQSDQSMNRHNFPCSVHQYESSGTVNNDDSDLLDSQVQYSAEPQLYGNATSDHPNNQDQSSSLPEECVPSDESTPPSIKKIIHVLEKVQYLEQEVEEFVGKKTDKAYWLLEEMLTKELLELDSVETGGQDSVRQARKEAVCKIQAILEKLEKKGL
Chain of UniProt P31641 (whole entry, unmodified, looked up): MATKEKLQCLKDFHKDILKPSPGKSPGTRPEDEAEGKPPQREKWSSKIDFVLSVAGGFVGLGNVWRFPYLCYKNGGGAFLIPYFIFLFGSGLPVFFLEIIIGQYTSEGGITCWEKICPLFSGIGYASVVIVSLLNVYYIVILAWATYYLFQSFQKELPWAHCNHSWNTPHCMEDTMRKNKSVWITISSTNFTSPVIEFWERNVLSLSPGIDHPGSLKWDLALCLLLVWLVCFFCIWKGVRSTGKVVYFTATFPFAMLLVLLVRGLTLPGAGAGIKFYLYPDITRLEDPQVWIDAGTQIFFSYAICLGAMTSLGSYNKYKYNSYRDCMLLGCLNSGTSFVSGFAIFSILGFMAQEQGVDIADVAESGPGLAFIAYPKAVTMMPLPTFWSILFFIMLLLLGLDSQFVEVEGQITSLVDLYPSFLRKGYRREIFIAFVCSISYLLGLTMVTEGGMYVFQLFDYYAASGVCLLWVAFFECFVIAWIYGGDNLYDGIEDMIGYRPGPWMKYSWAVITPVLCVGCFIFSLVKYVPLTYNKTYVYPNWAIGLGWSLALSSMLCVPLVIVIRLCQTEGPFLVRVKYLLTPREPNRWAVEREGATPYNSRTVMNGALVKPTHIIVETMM
Chain of UniProt P94040 (whole entry, looked up): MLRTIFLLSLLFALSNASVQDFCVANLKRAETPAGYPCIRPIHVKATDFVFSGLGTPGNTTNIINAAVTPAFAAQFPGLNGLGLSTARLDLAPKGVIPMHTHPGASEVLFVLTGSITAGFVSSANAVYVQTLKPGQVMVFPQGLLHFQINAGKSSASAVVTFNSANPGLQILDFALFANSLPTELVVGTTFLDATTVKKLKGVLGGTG

The Kd of CCOC(=O)N1CCN(c2ccc(Cl)cc2)CC1 is reported as 0.168 µM (GAP50; binding, surface plasmon resonance; 1:1 binding model).
For O=C(O)Cc1cccnc1, the Kd was over 1000 µM (USP51 ZnF-UBD domain).
With C[N+](C)(C)CC(=O)O the Kd was 0.00212 µM and 0.00181 µM (uncharacterized protein; binding, competition isothermal titration calorimetry; Candidatus Pelagibacter ubique; added: glycine 2.5 mM competitor).
Under Kd, [H]/N=C(/N)NCC(=O)O is recorded as “no binding” (SLC6A6 (Homo sapiens, UniProt P31641, L306A); microscale thermophoresis; L306A mutant).
CC(=O)NC1C(O)OC(CN)C(O)[C@@H]1O[C@H](C)C(=O)N[C@@H](C)C(=O)N[C@H](CCC(=O)O)C(N)=O (some centres unmarked) has a Kd of 0.212 ± 0.024 µM (Nucleotide-binding oligomerization domain-containing protein 2, LRR domain (NOD2, Homo sapiens, UniProt Q9HC29); binding, SPR, immobilised ligand; LRR domain wild type).
With CCCCCCCC(=O)OC[C@H](COP(=O)(O)O[C@@H]1[C@H](O)[C@H](O)[C@@H](OP(=O)(O)O)[C@H](OP(=O)(O)O)[C@H]1O)OC(=O)CCCCCCC the Kd was 96 µM and 96.1 µM (KCNQ2/KCNQ3(EEE) mutant channel; channel open probability, activator, fitted binding model; model 4, site K2).
With Nc1nc2c(ncn2[C@H]2C[C@H](O)[C@@H](COP(=O)(O)OP(=O)(O)OP(=O)(O)O)O2)c(=O)[nH]1 the Kd was 460 ± 40 µM (DNA repair protein REV1, residues 1-746 (REV1, Saccharomyces cerevisiae, UniProt P12689); substrate, rapid chemical quench; pH 7.5, 30 °C, added: primer-template DNA).
C[C@H](N)C(=O)N[C@H](CCC(=O)O)C(N)=O has a Kd of 1.45 ± 0.13 µM (NOD2 W931A LRR domain; surface plasmon resonance; LRR mutant W931A).
For O=C1O[C@H]([C@@H](O)CO)C(O)=C1O, the Kd was 7160 µM (Transforming protein RhoA (Rhoa, Mus musculus, UniProt Q9QUI0); surface plasmon resonance; mouse protein).
Nc1ncnc2c1ncn2[C@@H]1O[C@H](CSCC[C@H](N)C(=O)O)[C@@H](O)[C@H]1O gave a Kd of 0.675 ± 0.155 µM (O-methyltransferase (Sorghum bicolor, UniProt A0A1B6PFV1); ITC; added: saturating PTR).
For O=C(O)/C=C/C=C/c1cccc(Oc2cc(Cl)cc(Cl)c2)c1, the Kd was 3.81 µM (GAP50; binding, surface plasmon resonance; 1:1 binding model).
For C[C@@H]1C(=O)O[C@H]2C[C@@]34[C@H]5C[C@@H](C(C)(C)C)[C@]36[C@@H](OC(=O)[C@@H]6O)O[C@@]4(C(=O)O5)[C@]21O, the Kd was 0.0019 µM (Rdl (Drosophila melanogaster, UniProt P25123); ion current, inhibitor, two-electrode voltage clamp; from koff/kon, added: GABA at EC50).
For CN(C)c1ccc2c(-c3cc(C(=O)NCCOCCOCCCCCCCl)ccc3C(=O)[O-])c3ccc(=[N+](C)C)cc-3oc2c1, the Kd was 2.34 ± 0.8 µM (linB (Sphingobium indicum, UniProt D4Z2G1, H272F)).
With CCCN1CCN(c2ccc(-c3cncc(Cl)c3N3CCC4(CCNC4=O)CC3)cc2)CC1 the Kd was 0.01 µM (MED20 human; SILAC competition; LS174T-L5 lysate).
The Kd of COc1cc2oc(=O)cc(C)c2cc1CCC(=O)O is reported as over 1000 µM (USP51 ZnF-UBD domain).
For NCCN(C(=O)c1ccc(Cl)cc1Cl)c1ccc(OCc2ccc(Cl)cc2)cc1, the Kd was 26.2 µM (GAP50; binding, surface plasmon resonance; 1:1 binding model).
O=[N+]([O-])c1cc(C(F)(F)F)ccc1NCc1ccco1 gave a Kd of 0.84 ± 0.05 µM (Endothelial PAS domain-containing protein 1, PAS-B domain (EPAS1, Homo sapiens, UniProt Q99814, N288A); ITC, reverse mode; 25 °C).
The Kd of NS(=O)(=O)c1ccccc1 is reported as 3.33 µM (CA14 (Homo sapiens, UniProt Q9ULX7); thermal shift; pH 7.0, 25 °C).
For O=C(O)CCc1nc2ccccc2c2nc(Cc3ccccc3)nn12, the Kd was over 1000 µM (USP51 ZnF-UBD domain).
With O=C(O)Cc1c[nH]c2ccccc12 the Kd was 1.73 µM (Germin-like protein subfamily 3 member 1 (GLP1, Arabidopsis thaliana, UniProt P94040); binding, microscale thermophoresis; Flag-tagged protein from protoplasts).
For O=C(O)CCc1ccccc1OCc1ccccn1, the Kd was over 1000 µM (USP51 ZnF-UBD domain).
With NCC(=O)O the Kd was 5.46 ± 0.06 µM (uncharacterized protein; isothermal titration calorimetry; Candidatus Pelagibacter ubique; direct titration).
The Kd of CC(C)C[C@@H]1NC(=O)[C@H](C)NC(=O)CNC(=O)[C@H](CC(N)=O)NC(=O)[C@@H]2CCCN2C(=O)[C@H](Cc2ccc(O)cc2)NC(=O)[C@H](CCCNC(=N)N)NC(=O)[C@H](Cc2ccccc2)NC(=O)[C@@H](NC(=O)[C@H](CCCCN)NC(=O)[C@@H]2CCCN2C(=O)[C@H](CO)NC(=O)[C@H](C)NC(=O)[C@@H](N)Cc2ccc(O)cc2)CSSC[C@@H](C(=O)N[C@H](C(N)=O)[C@@H](C)O)NC(=O)[C@H](C)NC1=O is reported as 0.78 µM (fucoidan; binding, isothermal titration calorimetry; pH 7.0, 25 °C).
Cc1nnc(NCc2cccc(Cl)c2)c2ccccc12 has a Kd of 67.2 µM (GAP50; binding, surface plasmon resonance; 1:1 binding model).
The Kd of O=C(O)CCC(=O)c1ccc2c(c1)CCC(=O)N2 is reported as over 1000 µM (USP51 ZnF-UBD domain).
For Nc1ncnc2c1ncn2[C@@H]1O[C@H](CO)[C@@H](O)[C@@H]1O, the Kd was over 1000 µM (Heat shock cognate 71 kDa protein, nucleotide-binding domain (HSPA8, Homo sapiens, UniProt P11142); binding, SPR; nucleotide-binding domain, residues 1-381).
N[C@@H](CO)C(=O)O has a Kd of 0.199 ± 0.097 µM (SAR11_1346 protein (Candidatus Pelagibacter sp.); binding, direct isothermal titration calorimetry).
With COc1ccc(CN)cc1 the Kd was 0.43 µM (Maoa; pH 7.5, deprotonated amine, pKa-corrected).
With N#CC(=Cc1ccsc1)C(N)=O the Kd was 11900 ± 920 µM (2-mercaptoethanol; thiol adduct formation, UV-visible titration; PBS; pH 7.4).
CCN(CC)C1CCC(NC(=O)c2cc3[nH]ccc3cc2Cl)CC1 (centres unmarked) — result for Kd: “no binding” (Nuclear receptor subfamily 4 group A member 2 (Homo sapiens, UniProt P43354); isothermal titration calorimetry; 25 °C).
COc1cc2c(cc1O)[C@@H](Cc1ccc(O)cc1)[N+](C)(C)CC2 gave a Kd of 7.74 µM (GAP50; binding, surface plasmon resonance; 1:1 binding model).
For Cc1cc2nc3c(=O)[nH]c(=O)nc-3n(C[C@H](O)[C@H](O)[C@H](O)COP(=O)(O)OP(=O)(O)OC[C@H]3O[C@@H](n4cnc5c(N)ncnc54)[C@H](O)[C@@H]3O)c2cc1C, the Kd was 0.203 µM (BAG family molecular chaperone regulator 4 (BAG4, Homo sapiens, UniProt O95429); binding, MS pulldown competition; SW-620 cell lysate).
The Kd of CO[C@H]1/C=C\C=C(/C)C(=O)NC2=CC(=O)C(NCCCCCCNC(=S)Nc3ccc(-c4c5ccc(=O)cc-5oc5cc(O)ccc45)c(C(=O)O)c3)=C(C[C@@H](C)C[C@H](OC)[C@H](O)[C@@H](C)/C=C(\C)[C@@H]1OC(N)=O)C2=O is reported as 0.0009 µM (HSP90AA1 (Homo sapiens, UniProt P07900); binding, fluorescence polarization; added: geldanamycin-FITC probe).
CCC(C)NCC(O)Cn1c2ccc(Cl)cc2c2cc(Cl)ccc21 (centres unmarked) has a Kd of 47.7 µM (GAP50; binding, surface plasmon resonance; 1:1 binding model).
With O=C(O)Cn1cnc2ccccc2c1=O the Kd was over 1000 µM (USP51 ZnF-UBD domain).
N#CC(=Cc1ccc(-n2ccnc2)cc1)C(N)=O gave a Kd of 1290 ± 30 µM (2-mercaptoethanol; thiol adduct formation, UV-visible titration; PBS; pH 7.4).
O=C(O)CNc1ccc2nncn2n1 has a Kd of over 1000 µM (USP51 ZnF-UBD domain).
The Kd of Cn1cc(CNCC2CCN(c3ncc(C(=O)NO)cn3)CC2)c2ccccc21 is reported as 0.0672 µM (HDAC10 (Homo sapiens, UniProt Q969S8); inhibitor, competition pulldown; SW620 and MV4-11 lysate; 1 h).
The Kd of NCc1ccc(F)cc1 is reported as 103 µM (Maoa; steady-state isotope effects; pH 7.5).
Nc1nc2c(ncn2[C@@H]2O[C@H](COP(=O)(O)OP(=O)(O)OP(=O)(O)O)[C@@H](O)[C@H]2O)c(=O)[nH]1 has a Kd of 0.068 µM (GTP-binding protein gtr2, with Gtr1 (gtr2, Schizosaccharomyces pombe, UniProt O74544, F161W); UV crosslinking titration; 4 °C).
Nc1nc(CC(=O)O)cs1 gave a Kd of over 1000 µM (USP51 ZnF-UBD domain).
With CC(=O)N[C@@H]1[C@@H](O)[C@H](O)[C@@H](CO)O[C@H]1O the Kd was 1.38 ± 0.303 µM (NOD2 W931A LRR domain; surface plasmon resonance; LRR mutant W931A).
With CN1CCC(NCc2cccc(-c3ccc(S(=O)(=O)NCc4ccccc4)cc3)c2)CC1 the Kd was 6.62 µM (GAP50; binding, surface plasmon resonance; 1:1 binding model).
C[C@H](O)C(=O)O has a Kd of 25 ± 9 µM (T156H-R445H zinc sensor protein; binding, fluorescence lifetime; added: 100 µM Zn2+).
With O=C(O)Cc1cc(-c2ccc(C(=O)O)s2)sc1-c1ccc(-c2sc(-c3ccc(C(=O)O)s3)cc2CC(=O)O)s1 the Kd was 5.26 µM (Microtubule-associated protein tau, 0N4R isoform, aggregated (MAPT, Homo sapiens, UniProt P10636); binding, fluorescence; 30% sucrose tau fraction).
NCc1ccc(C(F)(F)F)cc1 has a Kd of 284 µM (Maoa; steady-state isotope effects; pH 7.5).
The Kd of c1ccc(Oc2ccc(-c3cc(N4CCOCC4)[nH]n3)cc2)cc1 is reported as 76.8 µM (GAP50; binding, surface plasmon resonance; 1:1 binding model).
With COc1ccc(N2CCN(Cc3cn4c(-c5ccc(Br)cc5)nnc4s3)CC2)cc1 the Kd was 0.319 µM (His-SUMO-FSP1; binding, SPR steady-state; 25 °C).
COc1cc(C=O)ccc1O has a Kd of 60 ± 4 µM (Aromatic O-demethylase, cytochrome P450 subunit (gcoA, Amycolatopsis sp., UniProt P0DPQ7); binding, ferric spin-state titration; Amycolatopsis sp. ATCC 39116; ferric enzyme without reductase).
For NCc1ccc(Br)cc1, the Kd was 30 µM (Maoa; steady-state isotope effects; pH 7.5).

Excerpt of the above:
The Kd of O=C(O)CCC(=O)c1ccc2c(c1)CCC(=O)N2 is reported as over 1000 µM (USP51 ZnF-UBD domain).
C[C@H](N)C(=O)N[C@H](CCC(=O)O)C(N)=O has a Kd of 1.45 ± 0.13 µM (NOD2 W931A LRR domain; surface plasmon resonance; LRR mutant W931A).
The Kd of NS(=O)(=O)c1ccccc1 is reported as 3.33 µM (CA14 (Homo sapiens, UniProt Q9ULX7); thermal shift; pH 7.0, 25 °C).
With CCCN1CCN(c2ccc(-c3cncc(Cl)c3N3CCC4(CCNC4=O)CC3)cc2)CC1 the Kd was 0.01 µM (MED20 human; SILAC competition; LS174T-L5 lysate).
